Measured values pooled from the literature.
Compare with care: the assays were run in different laboratories. ± gives the spread as reported.
SPT15/TOA1/TOA2/SUA7 1-240; 1-286; 1-122; 1-345: SPT15/TOA1/TOA2/SUA7 1-240; 1-286; 1-122; 1-345 (Saccharomyces cerevisiae)
Fibroin-modulator-binding protein-1: Fibroin-modulator-binding protein-1 99-193 (Bombyx mori, UniProt Q5FBS0)
YAP1 full length assumed: YAP1 full length assumed (Saccharomyces cerevisiae, UniProt P19880)
Chain of UniProt P19880 (whole entry, looked up): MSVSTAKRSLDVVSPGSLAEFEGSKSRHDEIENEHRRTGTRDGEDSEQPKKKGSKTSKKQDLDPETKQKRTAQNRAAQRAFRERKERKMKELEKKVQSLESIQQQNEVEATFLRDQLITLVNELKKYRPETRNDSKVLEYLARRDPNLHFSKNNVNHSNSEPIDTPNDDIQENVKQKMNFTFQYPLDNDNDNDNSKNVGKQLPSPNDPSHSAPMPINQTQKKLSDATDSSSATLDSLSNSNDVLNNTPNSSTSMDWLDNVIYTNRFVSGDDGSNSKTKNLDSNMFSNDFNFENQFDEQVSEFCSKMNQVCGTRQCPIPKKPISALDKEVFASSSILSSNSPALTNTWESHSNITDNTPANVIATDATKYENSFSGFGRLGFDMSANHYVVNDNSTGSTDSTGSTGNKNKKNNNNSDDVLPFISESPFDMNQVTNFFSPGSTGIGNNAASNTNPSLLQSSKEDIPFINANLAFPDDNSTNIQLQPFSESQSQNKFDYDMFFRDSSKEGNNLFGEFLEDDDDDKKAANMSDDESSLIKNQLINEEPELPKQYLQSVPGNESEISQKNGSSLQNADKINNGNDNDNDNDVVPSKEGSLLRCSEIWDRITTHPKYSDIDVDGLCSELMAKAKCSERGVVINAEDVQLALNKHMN
CGAS: CGAS 161-522 (Homo sapiens, UniProt Q8N884)
Chain of UniProt Q8N884 (whole entry, unmodified, looked up): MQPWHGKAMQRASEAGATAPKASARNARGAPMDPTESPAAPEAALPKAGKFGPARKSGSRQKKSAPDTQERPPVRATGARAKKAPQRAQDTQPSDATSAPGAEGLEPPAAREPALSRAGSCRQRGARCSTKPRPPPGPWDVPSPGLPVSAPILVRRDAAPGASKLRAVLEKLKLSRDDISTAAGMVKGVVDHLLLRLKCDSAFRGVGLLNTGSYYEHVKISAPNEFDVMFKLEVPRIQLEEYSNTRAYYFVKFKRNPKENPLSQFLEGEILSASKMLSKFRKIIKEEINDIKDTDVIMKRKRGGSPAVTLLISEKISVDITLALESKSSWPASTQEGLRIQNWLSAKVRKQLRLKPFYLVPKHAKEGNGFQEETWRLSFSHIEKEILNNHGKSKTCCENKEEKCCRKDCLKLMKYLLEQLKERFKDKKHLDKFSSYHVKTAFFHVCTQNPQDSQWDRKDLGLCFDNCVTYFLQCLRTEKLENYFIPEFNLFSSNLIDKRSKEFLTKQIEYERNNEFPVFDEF
allR full length assumed: allR full length assumed (Escherichia coli, UniProt P0ACN4)
Chain of UniProt P0ACN4 (whole entry, looked up): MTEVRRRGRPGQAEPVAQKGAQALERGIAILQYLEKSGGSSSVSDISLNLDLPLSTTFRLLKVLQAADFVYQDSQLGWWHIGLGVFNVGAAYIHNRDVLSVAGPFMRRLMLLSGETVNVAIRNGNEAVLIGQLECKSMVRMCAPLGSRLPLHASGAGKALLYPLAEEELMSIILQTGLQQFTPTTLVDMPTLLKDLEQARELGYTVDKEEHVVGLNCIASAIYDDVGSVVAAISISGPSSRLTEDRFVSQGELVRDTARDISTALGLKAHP
Chain of UniProt P46063 (whole entry, unmodified, looked up): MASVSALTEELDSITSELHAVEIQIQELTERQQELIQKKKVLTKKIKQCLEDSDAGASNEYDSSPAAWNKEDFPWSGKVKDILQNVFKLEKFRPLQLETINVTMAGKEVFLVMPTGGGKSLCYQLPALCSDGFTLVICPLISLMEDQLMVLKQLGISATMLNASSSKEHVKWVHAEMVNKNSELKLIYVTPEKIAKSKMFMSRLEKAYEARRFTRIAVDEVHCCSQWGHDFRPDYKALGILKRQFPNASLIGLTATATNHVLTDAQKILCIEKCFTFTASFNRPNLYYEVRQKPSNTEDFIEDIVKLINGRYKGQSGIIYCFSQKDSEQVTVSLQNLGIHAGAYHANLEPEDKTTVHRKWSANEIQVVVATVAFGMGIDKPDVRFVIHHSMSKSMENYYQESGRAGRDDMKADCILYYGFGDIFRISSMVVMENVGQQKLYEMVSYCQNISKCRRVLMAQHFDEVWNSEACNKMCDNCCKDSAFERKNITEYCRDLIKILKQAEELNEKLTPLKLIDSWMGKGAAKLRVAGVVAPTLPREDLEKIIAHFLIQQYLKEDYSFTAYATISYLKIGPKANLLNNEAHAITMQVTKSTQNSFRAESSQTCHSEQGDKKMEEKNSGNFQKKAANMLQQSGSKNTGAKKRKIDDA
Chain of UniProt P32787 (whole entry, unmodified, looked up): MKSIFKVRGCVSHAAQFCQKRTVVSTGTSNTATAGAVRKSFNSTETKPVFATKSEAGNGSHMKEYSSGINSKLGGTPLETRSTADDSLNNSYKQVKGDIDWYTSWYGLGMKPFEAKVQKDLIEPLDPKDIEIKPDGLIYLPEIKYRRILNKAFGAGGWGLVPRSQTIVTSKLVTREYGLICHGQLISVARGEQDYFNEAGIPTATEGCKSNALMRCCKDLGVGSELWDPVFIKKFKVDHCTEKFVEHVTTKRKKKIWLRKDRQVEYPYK
Chain of UniProt Q9H2U1 (whole entry, looked up): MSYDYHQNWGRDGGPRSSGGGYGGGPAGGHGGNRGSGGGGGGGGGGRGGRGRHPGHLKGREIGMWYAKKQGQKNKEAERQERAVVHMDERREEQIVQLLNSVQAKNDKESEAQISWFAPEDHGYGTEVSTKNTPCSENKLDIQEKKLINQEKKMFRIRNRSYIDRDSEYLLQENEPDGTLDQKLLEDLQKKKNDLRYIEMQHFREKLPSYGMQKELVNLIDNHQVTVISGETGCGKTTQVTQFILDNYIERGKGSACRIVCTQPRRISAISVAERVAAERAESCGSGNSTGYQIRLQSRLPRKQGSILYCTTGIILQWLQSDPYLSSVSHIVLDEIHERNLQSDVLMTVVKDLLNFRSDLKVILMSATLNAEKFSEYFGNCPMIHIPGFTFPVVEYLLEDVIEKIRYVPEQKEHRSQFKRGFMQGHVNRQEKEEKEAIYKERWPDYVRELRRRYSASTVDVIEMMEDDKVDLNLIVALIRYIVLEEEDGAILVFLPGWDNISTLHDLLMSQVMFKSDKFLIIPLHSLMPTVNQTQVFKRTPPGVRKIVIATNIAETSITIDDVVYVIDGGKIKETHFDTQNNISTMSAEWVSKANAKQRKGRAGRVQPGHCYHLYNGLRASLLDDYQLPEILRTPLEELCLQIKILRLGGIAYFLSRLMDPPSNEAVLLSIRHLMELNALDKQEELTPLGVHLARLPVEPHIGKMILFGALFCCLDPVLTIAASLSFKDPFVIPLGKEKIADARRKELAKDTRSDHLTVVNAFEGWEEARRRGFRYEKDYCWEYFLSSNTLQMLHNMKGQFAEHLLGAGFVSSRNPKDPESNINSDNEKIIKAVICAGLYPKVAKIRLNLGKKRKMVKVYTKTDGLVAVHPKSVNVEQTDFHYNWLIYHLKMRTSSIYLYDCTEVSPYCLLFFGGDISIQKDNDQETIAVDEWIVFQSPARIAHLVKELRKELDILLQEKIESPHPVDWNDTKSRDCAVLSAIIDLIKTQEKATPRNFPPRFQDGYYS
Chain of UniProt P55265 (whole entry, looked up): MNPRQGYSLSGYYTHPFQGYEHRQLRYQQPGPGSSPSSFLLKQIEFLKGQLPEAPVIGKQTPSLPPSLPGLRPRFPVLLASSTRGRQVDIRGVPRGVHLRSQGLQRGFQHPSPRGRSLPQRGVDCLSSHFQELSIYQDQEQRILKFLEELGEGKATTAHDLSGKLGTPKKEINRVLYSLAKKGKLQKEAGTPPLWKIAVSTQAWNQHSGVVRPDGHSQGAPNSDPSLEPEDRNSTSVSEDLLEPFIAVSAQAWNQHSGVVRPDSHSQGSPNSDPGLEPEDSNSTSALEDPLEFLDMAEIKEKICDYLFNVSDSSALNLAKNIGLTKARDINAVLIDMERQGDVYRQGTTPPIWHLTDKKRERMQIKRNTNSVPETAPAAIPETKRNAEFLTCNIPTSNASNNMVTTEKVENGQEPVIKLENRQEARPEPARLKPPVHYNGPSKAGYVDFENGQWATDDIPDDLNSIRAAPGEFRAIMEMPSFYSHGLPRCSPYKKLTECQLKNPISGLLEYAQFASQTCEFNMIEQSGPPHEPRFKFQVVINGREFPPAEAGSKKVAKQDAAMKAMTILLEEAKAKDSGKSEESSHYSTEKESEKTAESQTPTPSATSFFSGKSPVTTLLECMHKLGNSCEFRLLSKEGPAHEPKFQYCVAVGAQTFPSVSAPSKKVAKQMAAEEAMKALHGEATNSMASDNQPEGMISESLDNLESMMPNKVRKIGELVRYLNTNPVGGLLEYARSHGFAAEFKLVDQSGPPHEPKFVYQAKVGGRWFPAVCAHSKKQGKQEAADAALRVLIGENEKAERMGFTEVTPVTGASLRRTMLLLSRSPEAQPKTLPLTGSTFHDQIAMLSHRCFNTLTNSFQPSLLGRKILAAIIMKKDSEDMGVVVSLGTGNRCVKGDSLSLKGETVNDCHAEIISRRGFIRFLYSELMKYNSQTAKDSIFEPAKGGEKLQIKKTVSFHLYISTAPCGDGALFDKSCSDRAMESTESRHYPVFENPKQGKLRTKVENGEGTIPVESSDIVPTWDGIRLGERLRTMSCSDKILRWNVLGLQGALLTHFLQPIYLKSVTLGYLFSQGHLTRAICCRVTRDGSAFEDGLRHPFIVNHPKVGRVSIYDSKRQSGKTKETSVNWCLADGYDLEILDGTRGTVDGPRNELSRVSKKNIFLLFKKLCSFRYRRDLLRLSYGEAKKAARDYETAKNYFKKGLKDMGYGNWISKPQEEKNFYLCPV
Chain of UniProt P0A7G6 (whole entry, looked up): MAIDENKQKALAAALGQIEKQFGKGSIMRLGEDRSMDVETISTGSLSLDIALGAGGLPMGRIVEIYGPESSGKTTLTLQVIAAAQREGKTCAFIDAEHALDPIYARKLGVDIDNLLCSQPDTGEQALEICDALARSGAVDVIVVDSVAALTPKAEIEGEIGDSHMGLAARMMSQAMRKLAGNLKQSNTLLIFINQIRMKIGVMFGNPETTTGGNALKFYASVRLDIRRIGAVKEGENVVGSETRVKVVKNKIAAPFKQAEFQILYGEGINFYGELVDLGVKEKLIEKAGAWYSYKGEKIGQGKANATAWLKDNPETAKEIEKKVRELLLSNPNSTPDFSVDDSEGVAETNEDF

ATGATTACTAATTCTTAACATTCGAGTTCAATCTCTCAAGTCAATCGGTCC (dsDNA; 5'-amino-C6 primer) — Kd (SPT15/TOA1/TOA2/SUA7 1-240; 1-286; 1-122; 1-345; array; double-stranded DNA, one strand shown; TBP:TFIIA:TFIIB ternary complex): 0.00328 ± 0.0009 µM
UUCCUAUAUCUUCU (XNA; single strand, 2'-OMe, phosphorothioate backbone) — Kd (MATR3 1-847 (Homo sapiens, UniProt P43243); fluorescence polarization; modified nucleic acid; apparent): 0.243 ± 0.119 µM
PKRSFIESNV — binding intensity (human SCRIB PDZ3-4 tandem (MBP fusion); automated holdup; peptide, crude extract; concentration not given, corrected by standard peak, unit not given; baseline: biotin control resin, higher = stronger binding): 0.95
GTGTTCGGACTCTGCCTCAAGACGGTAGTCAACGTGCTTG (ssDNA) — Kd (XRS2 1-325 (Saccharomyces cerevisiae, UniProt P33301); EMSA; single-stranded DNA; Hill fit, apparent): 3.7 ± 0.23 µM
CTAACTAACTAA (dsDNA) — Kd (Fibroin-modulator-binding protein-1; ITC; double-stranded DNA, one strand shown): 2.15 ± 0.134 µM
TTTTTTTTTTTTTTTTTTTTTTTTTTTTTTTTTTTTTTTTTTTTTTTTTTTTTTTTTTTTTTTTTTTTTT (ssDNA) — Kd (RAD51 full length assumed (Saccharomyces cerevisiae, UniProt P25454); fluorescence anisotropy; single-stranded DNA; apparent, Hill fit, with: ATP): 0.34 ± 0.04 µM
TGGCACTCGGGAGGCAGCGGCGACTTTGGGGAAAGTCAAGTCAATCGGTCC (dsDNA; 5'-amino-C6 primer) — Kd (SPT15/TOA1/TOA2/SUA7 1-240; 1-286; 1-122; 1-345; array; double-stranded DNA, one strand shown; TBP:TFIIA:TFIIB ternary complex): 0.00469 ± 0.00492 µM
AGGTAGGTAGGT (dsDNA) — Kd (Fibroin-modulator-binding protein-1; ITC; double-stranded DNA, one strand shown): 4.42 ± 0.705 µM
AAAGAAAGAAAGAAAGAAAGAAAG (ssRNA) — Kd (CGAS 161-522 K394E (Homo sapiens, UniProt Q8N884); fluorescence anisotropy; RNA): 0.537 ± 0.054 µM
CGCTATTTACGTCACTACGTCAGCACGTCAGGACGTCAGTACGTCATCACGTCATCTCCGGCGGTATGAC (dsDNA) — Kd (YAP1 full length assumed; MITOMI; double-stranded DNA, one strand shown; not purified): 2.3 ± 0.2 µM
colistin — MIC (Enterobacter cloacae; clinical isolate RKI 308/13): ≤ 0.5 mg/L
TCCTGAAGGGGCACCTATAAAAGGTCCTATCGTCGTCAAGTCAATCGGTCC (dsDNA; 5'-amino-C6 primer) — Kd (SPT15/TOA1/TOA2/SUA7 1-240; 1-286; 1-122; 1-345; array; double-stranded DNA, one strand shown; TBP:TFIIA:TFIIB ternary complex): 0.0017 ± 0.00025 µM
ATTTATATTATTTATTCATATTTATATTTA (ssDNA) — Kd (APOBEC3F full length assumed W310A (Homo sapiens, UniProt Q8IUX4); EMSA; single-stranded DNA): 3.45 ± 1.03 µM
GAGGGAGGGAGG (dsDNA) — Kd (Fibroin-modulator-binding protein-1; ITC; double-stranded DNA, one strand shown): 10.1 µM
CTGGGAGGGGCGCCGGGGGCGGGGCCTCGGGCT (G-quadruplex DNA (Homo sapiens); hybrid G4) — Kd (DHX36 full length assumed (Homo sapiens, UniProt Q9H2U1); BLI; folded DNA): 0.0998 µM
AGCAACACCG (ssRNA) — Kd (TARDBP 102-269 (Homo sapiens, UniProt Q13148); BLI; RNA): 1.32 ± 0.35 µM
TAAGACACGATGCGATAAAATCTG (dsDNA) — Kd (CGAS; fluorescence anisotropy; double-stranded DNA, one strand shown): 1.51 ± 0.38 µM
DNA 1 CACTGGCCGTCTTACGGTCGCTCTGCTCGACG / DNA 2 CGACCGTAAGACGGCCAGTG (dsDNA; 20 bp, 3' 12 nt overhang) — Kd (RECQL 63-592 E328A (Bos taurus, UniProt A0JN36); fluorescence anisotropy; double-stranded DNA; with: Mg2+ 3 mM): 0.0113 ± 0.0016 µM
GGGGGCTATAAAAGGGGGTGGGGGCGCGTTCGTCCTCAAGTCAATCGGTCC (dsDNA; 5'-amino-C6 primer) — Kd (SPT15/TOA1/TOA2/SUA7 1-240; 1-286; 1-122; 1-345; array; double-stranded DNA, one strand shown; TBP:TFIIA:TFIIB ternary complex): 0.0104 ± 0.00728 µM
UAGAAGCGGAUUUAGCUCAGUUGGGAGAGCGCCAGACUGAAGAUCUGGAGGUCCUGUGUUCGAUCCACAGAAUUCGCA (tRNA (Saccharomyces cerevisiae)) — Kd (RNA-free ribonuclease P 1-192 E141Q (Aquifex aeolicus, UniProt O67035); fluorescence polarization; folded RNA; with: CaCl2 20 mM): 1.51 ± 0.14 µM
DNA 1 TAACAAAAAATTTCCACCAAAC / DNA 2 TTTGGTGGAAATTTTTTGTTAG (dsDNA (Homo sapiens); 3' overhang) — Kd (TFAM 43-246 (Homo sapiens, UniProt Q00059); fluorescence polarization; double-stranded DNA): 0.0025 ± 0.0009 µM
CTCAGGAATTCCTATGAAGTAATGTGGAGCTCAGTTCAAGTCAATCGGTCC (dsDNA; 5'-amino-C6 primer) — Kd (SPT15/TOA1/TOA2/SUA7 1-240; 1-286; 1-122; 1-345; array; double-stranded DNA, one strand shown; TBP:TFIIA:TFIIB ternary complex): 0.00312 ± 0.00043 µM
CACTCTGACGTCACACTC (dsDNA) — Kd (ATF4 1-351 (Homo sapiens, UniProt P18848); fluorescence polarization; double-stranded DNA, one strand shown; one-site model, dimer, with: Mg2+ 10 mM): 0.19 ± 0.02 µM
DNA 1 GGATCTCGACGCTCTCCCTT / DNA 2 GTCGAGATCC (dsDNA; 3' 10-nt overhang, blunt end) — Kd (RECQL 49-616 D230A/R232A (Homo sapiens, UniProt P46063); fluorescence anisotropy; double-stranded DNA; Mg2+ 5 mM, with: ADPNP 2 mM): 0.092 ± 0.016 µM
GGCGGGCGGGCG (dsDNA) — Kd (Fibroin-modulator-binding protein-1; ITC; double-stranded DNA, one strand shown): 4.64 ± 0.794 µM
CGCTGATCACGTGATGACGTGATTACGTGCAGACGTGCATACGTGCCCACGTGCCCTCCGGCGGTATGAC (dsDNA) — Kd (YAP1 full length assumed; MITOMI; double-stranded DNA, one strand shown; not purified): 8 ± 1 µM
GGTAACTTAGCGTCTCGTTGTGATTAAGTTTGACGAGGAATGGAATGCGATGCGCATAACG (dsDNA) — Kd (allR full length assumed; BLI; double-stranded DNA, one strand shown): 1.54 µM
DNA 1 GGATCTCGACGCTCTCCCTT / DNA 2 GAGAGCGTCGAGATCC (dsDNA; 3' 4-nt overhang, blunt end) — Kd (RECQL 49-616 (Homo sapiens, UniProt P46063); fluorescence anisotropy; double-stranded DNA; Mg2+ 5 mM, with: ADPNP 2 mM): 0.331 ± 0.04 µM
DNA 1 TGGGTGGGTAGGGTGGGTAGGGGAGGAT / DNA 2 ATCCTCCCCTA (DNA; intramolecular parallel G4, 5' overhang, 11-bp duplex) — Kd (REV1 330-833 (Homo sapiens, UniProt Q9UBZ9); FP; folded DNA; KCl 100 mM): 0.0047 ± 0.0006 µM
GCGGGCGGGCGG (dsDNA) — Kd (Fibroin-modulator-binding protein-1; ITC; double-stranded DNA, one strand shown): 4.79 ± 0.888 µM
CTGCTGGAAACGCCGCGGTCAGCTCGGCTGCTGC (dsDNA) — Kd (EWSR1 454-656 (Homo sapiens, UniProt Q01844); EMSA; double-stranded DNA, one strand shown): 0.279 ± 0.05 µM
CGCGCG (XNA; fully LNA blunt duplex) — Kd (ADAR 133-199 (Homo sapiens, UniProt P55265); ITC; modified nucleic acid, one strand shown): 4.24 ± 0.66 µM
CATACATACATA (dsDNA) — Kd (Fibroin-modulator-binding protein-1; ITC; double-stranded DNA, one strand shown): 0.971 ± 0.0933 µM
CACCATCCACTAC / ATGTAGTTGTAGTGGATGGTGGTAC (dsDNA; primer-template) — Kd (POLH 1-432 (Homo sapiens, UniProt Q9Y253); fluorescence polarization; with: MgCl2 5 mM): 0.012 ± 0.001 µM
GGGCUGCUGUGGCAUUUCGAUGCUGCAUCGGC (structured RNA) — Kd (DCL1 1732-1811 E1747R/E1750R/E1763R (Arabidopsis thaliana, UniProt Q9SP32); fluorescence polarisation; folded RNA): 0.09 ± 0.011 µM
TCGGCTGGGAGGGGAGGTGTAGCCGGTCTTTGGGGTCAAGTCAATCGGTCC (dsDNA; 5'-amino-C6 primer) — Kd (SPT15/TOA1/TOA2/SUA7 1-240; 1-286; 1-122; 1-345; array; double-stranded DNA, one strand shown; TBP:TFIIA:TFIIB ternary complex): 0.00587 ± 0.00193 µM
CATTCGCAACCTATAAGTAAATCCAATGGAACTCATCATAAATGAGACTTTTACCTTATGA (dsDNA) — Kd (allR full length assumed; BLI; double-stranded DNA, one strand shown): 1.37 µM
GGAAGGAAGGAA (dsDNA) — Kd (Fibroin-modulator-binding protein-1; ITC; double-stranded DNA, one strand shown): 6.96 µM
TCACCNTCGTACGACTC / GAGTCGTACGAAGGTGA (dsDNA; blunt, tetrahydrofuran abasic site) — Kd (NEIL1 full length assumed K242R (Homo sapiens); EMSA; Hill fit): 0.24 ± 0.0167 µM
TAAGACACGATGCGATAAAATCTGTTTGTAAAATTTATTAAGGGTACAAATTGCCCTAGC (dsDNA) — Kd (CGAS 1-522 K394A (Homo sapiens, UniProt Q8N884); fluorescence anisotropy; double-stranded DNA, one strand shown): 0.111 ± 0.018 µM
TAGATAGATAGA (dsDNA) — Kd (Fibroin-modulator-binding protein-1; ITC; double-stranded DNA, one strand shown): 1.18 ± 0.0665 µM
TTGACAAAATTTGAAAGTTGGAAATATATTCCAATAAATAGAGGTAGGAATAAAATGGCAA (dsDNA) — Kd (allR full length assumed; BLI; double-stranded DNA, one strand shown): 0.0419 µM
AAAGAAAGAAAGAAAGAAAGAAAG (ssDNA) — Kd (CGAS; fluorescence anisotropy; single-stranded DNA): 2.44 ± 0.85 µM
TTTTTTTTTTTTTTTTTTTTTTTTTTTTTTTTTTTTTTTTTTTTTTTT (ssDNA) — Kd (MGM101 23-269 (Saccharomyces cerevisiae, UniProt P32787); fluorescence polarization; single-stranded DNA): 0.48 ± 0.13 µM
TCCTGAAGGGGCGCACTAGCTTGGTCCTATCGTCGTCAAGTCAATCGGTCC (dsDNA; 5'-amino-C6 primer) — Kd (SPT15/TOA1/TOA2/SUA7 1-240; 1-286; 1-122; 1-345; array; double-stranded DNA, one strand shown; TBP:TFIIA:TFIIB ternary complex): 0.00277 ± 0.00041 µM
AGTTGGCAAGATGCCAATC (dsDNA) — Kd (NFIB 14-176 (Homo sapiens, UniProt O00712); BLI; double-stranded DNA, one strand shown; with: Zn2+ 1 mM): 0.00161 ± 4e-05 µM
TTCTACGAGATCGTCATGAC (ssDNA; m6A in GATC) — Kd (recA full length assumed (Escherichia coli, UniProt P0A7G6); BLI; single-stranded DNA; with: ATPgS): 0.94 ± 0.01 µM
CCCGCCCCGCACTAGGACCCCTGCAGATGATCAGGTCAAGTCAATCGGTCC (dsDNA; 5'-amino-C6 primer) — Kd (SPT15/TOA1/TOA2/SUA7 1-240; 1-286; 1-122; 1-345; array; double-stranded DNA, one strand shown; TBP:TFIIA:TFIIB ternary complex): 0.0121 ± 0.0113 µM
TTGATAAGAGGTCATTTTTGCGGATGGCTTAGAGCTTAATTGCTGAATCTGGTGCTGTAGCTCAACATGTTTTAAATATGCAA (ssDNA) — Kd (MGM101 23-269 Y139A (Saccharomyces cerevisiae, UniProt P32787); fluorescence polarization; single-stranded DNA): 1.7 ± 0.13 µM

For quick reference, copied from above:
CTGCTGGAAACGCCGCGGTCAGCTCGGCTGCTGC (dsDNA) — Kd (EWSR1 454-656 (Homo sapiens, UniProt Q01844); EMSA; double-stranded DNA, one strand shown): 0.279 ± 0.05 µM
DNA 1 TAACAAAAAATTTCCACCAAAC / DNA 2 TTTGGTGGAAATTTTTTGTTAG (dsDNA (Homo sapiens); 3' overhang) — Kd (TFAM 43-246 (Homo sapiens, UniProt Q00059); fluorescence polarization; double-stranded DNA): 0.0025 ± 0.0009 µM
GAGGGAGGGAGG (dsDNA) — Kd (Fibroin-modulator-binding protein-1; ITC; double-stranded DNA, one strand shown): 10.1 µM
CACTCTGACGTCACACTC (dsDNA) — Kd (ATF4 1-351 (Homo sapiens, UniProt P18848); fluorescence polarization; double-stranded DNA, one strand shown; one-site model, dimer, with: Mg2+ 10 mM): 0.19 ± 0.02 µM
DNA 1 CACTGGCCGTCTTACGGTCGCTCTGCTCGACG / DNA 2 CGACCGTAAGACGGCCAGTG (dsDNA; 20 bp, 3' 12 nt overhang) — Kd (RECQL 63-592 E328A (Bos taurus, UniProt A0JN36); fluorescence anisotropy; double-stranded DNA; with: Mg2+ 3 mM): 0.0113 ± 0.0016 µM
TTCTACGAGATCGTCATGAC (ssDNA; m6A in GATC) — Kd (recA full length assumed (Escherichia coli, UniProt P0A7G6); BLI; single-stranded DNA; with: ATPgS): 0.94 ± 0.01 µM
